{"data": "Published values collected from several papers", "T1": "STAG2/RAD21 STAG2 80-1060, RAD21 281-420 (Homo sapiens); chain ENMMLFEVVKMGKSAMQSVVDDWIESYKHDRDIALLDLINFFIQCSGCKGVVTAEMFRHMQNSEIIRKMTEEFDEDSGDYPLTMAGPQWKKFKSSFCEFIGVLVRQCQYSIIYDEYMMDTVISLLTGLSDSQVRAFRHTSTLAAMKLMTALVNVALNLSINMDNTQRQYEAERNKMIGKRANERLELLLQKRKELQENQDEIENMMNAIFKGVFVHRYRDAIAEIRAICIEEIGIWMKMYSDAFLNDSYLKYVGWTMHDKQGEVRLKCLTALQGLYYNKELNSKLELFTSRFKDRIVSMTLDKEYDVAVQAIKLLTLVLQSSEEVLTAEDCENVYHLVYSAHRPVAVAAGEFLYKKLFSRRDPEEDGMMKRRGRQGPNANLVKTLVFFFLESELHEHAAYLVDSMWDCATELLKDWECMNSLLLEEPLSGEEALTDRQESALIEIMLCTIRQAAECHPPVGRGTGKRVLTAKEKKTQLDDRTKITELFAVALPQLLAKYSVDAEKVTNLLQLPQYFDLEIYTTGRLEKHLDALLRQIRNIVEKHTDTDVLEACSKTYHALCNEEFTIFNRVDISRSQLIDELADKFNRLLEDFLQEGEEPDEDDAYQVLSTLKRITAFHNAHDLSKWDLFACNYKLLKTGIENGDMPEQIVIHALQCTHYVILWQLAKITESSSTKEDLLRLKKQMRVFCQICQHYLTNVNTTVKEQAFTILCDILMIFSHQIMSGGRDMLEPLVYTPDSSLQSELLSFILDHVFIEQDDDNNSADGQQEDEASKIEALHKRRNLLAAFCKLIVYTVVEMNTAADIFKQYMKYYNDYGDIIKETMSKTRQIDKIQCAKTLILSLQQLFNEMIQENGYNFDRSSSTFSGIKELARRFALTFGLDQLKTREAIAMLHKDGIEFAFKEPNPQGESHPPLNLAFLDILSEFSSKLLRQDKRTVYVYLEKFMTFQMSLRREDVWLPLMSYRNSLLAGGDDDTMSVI; chain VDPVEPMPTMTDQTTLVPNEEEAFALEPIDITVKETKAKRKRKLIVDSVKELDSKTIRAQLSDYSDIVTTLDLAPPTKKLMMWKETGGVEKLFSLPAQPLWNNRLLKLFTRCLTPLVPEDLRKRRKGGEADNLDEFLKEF", "B1": "Fmnl3 555-954 K800A (Mus musculus, UniProt Q6ZPF4); chain GLSAIRIKKPIKTKFRLPVFNWTALKPNQINGTVFSELDDEKILEDLDLDRFEELFKTKAQGPALDLICSKNKTAQKAASKVTLLEANRAKNLAITLRKAGRSAEEICRAIHTFDLQTLPVDFVECLMRFLPTEAEVKLLRQYERERQPLEELAAEDRFMLLFSKVERLTQRMAGMAFLGNFQDNLQMLTPQLNAIIAASASVKSSQKLKQMLEIILALGNYMNSSKRGAVYGFKLQSLDLLLDTASTDRKMTLLHFIALTVKEKYPELANFWQELHFVEKAAAVSLENVLLDVKELGRGMELIRRECSIHDNSVLRNFLSTNEGKLDKLQRDAKTAEEAYNAVVRYFGESPKTTPPSVFFPVFVRFIRSYKEAEQENEARKKQEEVMREKQLAQEAKKL", "B2": "HNRNPH1 192-280 (Homo sapiens, UniProt P31943); chain RTHYDPPRKLMAMQRPGPYDRPGAGRGYNSIGRGAGFERMRRGAYGGGYGGYDDYNGYNDGYGFGSDRFGRDLNYCFSGMSDHRYGDGG", "B3": "kaiA (Synechococcus elongatus, UniProt Q79PF6); chain MLSQIAICIWVESTAILQDCQRALSADRYQLQVCESGEMLLEYAQTHRDQIDCLILVAANPSFRAVVQQLCFEGVVVPAIVVGDRDSEDPDEPAKEQLYHSAELHLGIHQLEQLPYQVDAALAEFLRLAPVETMADHIMLMGANHDPELSSQQRDLAQRLQERLGYLGVYYKRDPDRFLRNLPAYESQKLHQAMQTSYREIVLSYFSPNSNLNQSIDNFVNMAFFADVPVTKVVEIHMELMDEFAKKLRVEGRSEDILLDYRLTLIDVIAHLCEMYRRSIPRET", "B4": "Fmnl3 555-954 R570A (Mus musculus, UniProt Q6ZPF4); chain GLSAIRIKKPIKTKFALPVFNWTALKPNQINGTVFSELDDEKILEDLDLDRFEELFKTKAQGPALDLICSKNKTAQKAASKVTLLEANRAKNLAITLRKAGRSAEEICRAIHTFDLQTLPVDFVECLMRFLPTEAEVKLLRQYERERQPLEELAAEDRFMLLFSKVERLTQRMAGMAFLGNFQDNLQMLTPQLNAIIAASASVKSSQKLKQMLEIILALGNYMNSSKRGAVYGFKLQSLDLLLDTKSTDRKMTLLHFIALTVKEKYPELANFWQELHFVEKAAAVSLENVLLDVKELGRGMELIRRECSIHDNSVLRNFLSTNEGKLDKLQRDAKTAEEAYNAVVRYFGESPKTTPPSVFFPVFVRFIRSYKEAEQENEARKKQEEVMREKQLAQEAKKL", "B5": "Fmnl3 555-954 Q746A (Mus musculus, UniProt Q6ZPF4); chain GLSAIRIKKPIKTKFRLPVFNWTALKPNQINGTVFSELDDEKILEDLDLDRFEELFKTKAQGPALDLICSKNKTAQKAASKVTLLEANRAKNLAITLRKAGRSAEEICRAIHTFDLQTLPVDFVECLMRFLPTEAEVKLLRQYERERQPLEELAAEDRFMLLFSKVERLTQRMAGMAFLGNFQDNLQMLTPALNAIIAASASVKSSQKLKQMLEIILALGNYMNSSKRGAVYGFKLQSLDLLLDTKSTDRKMTLLHFIALTVKEKYPELANFWQELHFVEKAAAVSLENVLLDVKELGRGMELIRRECSIHDNSVLRNFLSTNEGKLDKLQRDAKTAEEAYNAVVRYFGESPKTTPPSVFFPVFVRFIRSYKEAEQENEARKKQEEVMREKQLAQEAKKL", "B6": "Nde1 (Mus musculus, UniProt Q9CZA6); phosphorylated by Cdk1; sequence looked up; chain MEDSGKTFESEEEETNYWRDLAMTYKQRAENTQEELREFQEGSREYEAELEAQLQQIETRNRDLLSENNRLRMELESVKEKFEMQHSEGYRQISALEDDLAQTKAIKDQLQKYIRELEQANDDLERAKRATIMSLEDFEQRLNQAIERNAFLESELDEKENLLESVQRLKDEARDLRQELAVQQKQDKPRTPMPGSGQAKRTDMAVQATGSVPSTPVAHRGPSSGLNTPGMFRRGLDSSTSGTPLTPAARISALNIVGDLLRKVGALESKLASCRNFMYDQSPSRTSGPASGRGTKNRDGVDRRPGSTSVGDKGSGKRLEFGKPASEPASPALPSAQGVVKLLL", "note": "± marks the error that the study gave. Square brackets hold non-standard residues; d marks the D form. Ends that are not written are not given here.", "chain of UniProt Q61627 (whole entry, looked up)": "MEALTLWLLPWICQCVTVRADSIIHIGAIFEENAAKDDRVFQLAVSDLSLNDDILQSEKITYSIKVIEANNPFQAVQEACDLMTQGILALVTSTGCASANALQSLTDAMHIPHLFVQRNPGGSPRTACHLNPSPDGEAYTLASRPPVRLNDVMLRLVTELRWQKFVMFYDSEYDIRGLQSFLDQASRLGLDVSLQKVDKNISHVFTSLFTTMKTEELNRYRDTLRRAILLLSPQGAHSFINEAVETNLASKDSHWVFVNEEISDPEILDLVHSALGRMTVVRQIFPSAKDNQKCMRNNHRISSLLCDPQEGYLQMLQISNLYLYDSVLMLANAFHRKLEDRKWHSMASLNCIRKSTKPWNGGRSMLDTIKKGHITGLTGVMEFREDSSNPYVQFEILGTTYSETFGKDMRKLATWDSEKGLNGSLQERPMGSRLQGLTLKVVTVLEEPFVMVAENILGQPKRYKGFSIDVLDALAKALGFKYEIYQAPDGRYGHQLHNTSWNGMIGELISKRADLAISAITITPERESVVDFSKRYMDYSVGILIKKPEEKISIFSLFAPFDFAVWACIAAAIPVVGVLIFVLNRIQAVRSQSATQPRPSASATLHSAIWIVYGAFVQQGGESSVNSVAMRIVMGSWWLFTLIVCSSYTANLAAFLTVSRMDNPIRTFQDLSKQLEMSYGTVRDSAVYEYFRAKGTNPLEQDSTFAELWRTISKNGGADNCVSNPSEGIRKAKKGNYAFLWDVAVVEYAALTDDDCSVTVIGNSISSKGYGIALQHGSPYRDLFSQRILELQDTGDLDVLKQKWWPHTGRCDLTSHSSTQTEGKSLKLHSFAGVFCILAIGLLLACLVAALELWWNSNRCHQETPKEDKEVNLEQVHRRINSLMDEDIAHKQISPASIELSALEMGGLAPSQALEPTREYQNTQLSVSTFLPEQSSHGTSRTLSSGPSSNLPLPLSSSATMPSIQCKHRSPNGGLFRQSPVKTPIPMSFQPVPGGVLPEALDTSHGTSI", "chain of UniProt Q8VQF4 (whole entry, looked up)": "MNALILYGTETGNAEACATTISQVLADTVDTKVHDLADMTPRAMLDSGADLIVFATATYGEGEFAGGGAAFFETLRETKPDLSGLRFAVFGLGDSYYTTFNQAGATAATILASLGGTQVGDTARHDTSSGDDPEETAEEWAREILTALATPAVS", "chain of UniProt P51532 (whole entry, looked up)": "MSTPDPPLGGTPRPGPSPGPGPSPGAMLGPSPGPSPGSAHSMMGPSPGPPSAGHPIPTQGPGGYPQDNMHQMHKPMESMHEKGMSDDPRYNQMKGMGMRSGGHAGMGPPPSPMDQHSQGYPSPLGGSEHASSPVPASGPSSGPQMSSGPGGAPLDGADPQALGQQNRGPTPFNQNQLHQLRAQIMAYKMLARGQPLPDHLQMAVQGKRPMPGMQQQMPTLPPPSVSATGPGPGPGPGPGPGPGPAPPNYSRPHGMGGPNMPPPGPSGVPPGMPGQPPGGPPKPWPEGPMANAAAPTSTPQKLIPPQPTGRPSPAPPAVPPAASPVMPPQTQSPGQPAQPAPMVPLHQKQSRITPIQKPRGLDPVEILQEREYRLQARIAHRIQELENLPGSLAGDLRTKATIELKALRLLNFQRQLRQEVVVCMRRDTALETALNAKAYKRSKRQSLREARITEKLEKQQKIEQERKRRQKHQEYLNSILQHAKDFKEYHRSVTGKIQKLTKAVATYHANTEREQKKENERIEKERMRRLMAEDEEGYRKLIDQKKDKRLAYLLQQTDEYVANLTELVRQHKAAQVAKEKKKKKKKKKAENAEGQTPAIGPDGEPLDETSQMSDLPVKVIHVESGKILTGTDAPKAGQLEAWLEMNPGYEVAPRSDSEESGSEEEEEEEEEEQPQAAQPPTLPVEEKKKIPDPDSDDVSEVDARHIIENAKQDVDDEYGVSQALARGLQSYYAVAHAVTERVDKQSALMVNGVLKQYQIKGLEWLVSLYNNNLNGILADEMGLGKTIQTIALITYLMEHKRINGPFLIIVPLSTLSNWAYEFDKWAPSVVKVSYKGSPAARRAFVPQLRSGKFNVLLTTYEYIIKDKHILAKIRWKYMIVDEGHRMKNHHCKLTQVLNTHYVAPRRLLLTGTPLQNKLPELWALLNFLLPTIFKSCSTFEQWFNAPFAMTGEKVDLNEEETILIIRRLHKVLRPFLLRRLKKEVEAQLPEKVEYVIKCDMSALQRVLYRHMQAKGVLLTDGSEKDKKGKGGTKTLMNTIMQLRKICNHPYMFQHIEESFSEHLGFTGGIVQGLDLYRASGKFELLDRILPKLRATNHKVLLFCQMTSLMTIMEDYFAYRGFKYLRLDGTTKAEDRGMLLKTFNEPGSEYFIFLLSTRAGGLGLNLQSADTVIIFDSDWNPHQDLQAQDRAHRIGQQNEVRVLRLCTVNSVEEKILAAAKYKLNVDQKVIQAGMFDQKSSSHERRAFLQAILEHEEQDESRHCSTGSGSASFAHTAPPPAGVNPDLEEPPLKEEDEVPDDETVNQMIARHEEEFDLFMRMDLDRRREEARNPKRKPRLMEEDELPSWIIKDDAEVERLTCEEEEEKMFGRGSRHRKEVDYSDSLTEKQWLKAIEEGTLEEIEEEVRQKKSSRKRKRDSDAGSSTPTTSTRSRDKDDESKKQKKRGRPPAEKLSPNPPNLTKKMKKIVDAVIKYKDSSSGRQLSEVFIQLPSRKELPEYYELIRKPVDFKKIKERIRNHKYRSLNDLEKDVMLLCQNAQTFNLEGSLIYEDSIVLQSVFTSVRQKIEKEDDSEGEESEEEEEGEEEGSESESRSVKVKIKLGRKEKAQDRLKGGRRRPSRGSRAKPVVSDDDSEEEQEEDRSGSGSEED", "chain of UniProt O15392 (whole entry, looked up)": "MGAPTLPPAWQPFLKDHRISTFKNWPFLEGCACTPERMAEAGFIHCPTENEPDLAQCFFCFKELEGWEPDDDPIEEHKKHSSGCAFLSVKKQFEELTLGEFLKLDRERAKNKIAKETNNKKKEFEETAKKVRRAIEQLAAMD", "chain of UniProt P10914 (whole entry, looked up)": "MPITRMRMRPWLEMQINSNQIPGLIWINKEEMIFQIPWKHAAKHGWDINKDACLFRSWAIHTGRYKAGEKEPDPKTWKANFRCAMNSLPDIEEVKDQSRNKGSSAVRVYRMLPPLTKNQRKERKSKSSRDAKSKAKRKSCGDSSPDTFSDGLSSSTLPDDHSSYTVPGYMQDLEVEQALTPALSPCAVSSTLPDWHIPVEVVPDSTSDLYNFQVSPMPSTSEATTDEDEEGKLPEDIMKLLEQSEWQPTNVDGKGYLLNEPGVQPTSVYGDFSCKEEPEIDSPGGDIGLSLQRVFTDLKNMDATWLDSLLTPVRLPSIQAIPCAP", "chain of UniProt P00772 (whole entry, looked up)": "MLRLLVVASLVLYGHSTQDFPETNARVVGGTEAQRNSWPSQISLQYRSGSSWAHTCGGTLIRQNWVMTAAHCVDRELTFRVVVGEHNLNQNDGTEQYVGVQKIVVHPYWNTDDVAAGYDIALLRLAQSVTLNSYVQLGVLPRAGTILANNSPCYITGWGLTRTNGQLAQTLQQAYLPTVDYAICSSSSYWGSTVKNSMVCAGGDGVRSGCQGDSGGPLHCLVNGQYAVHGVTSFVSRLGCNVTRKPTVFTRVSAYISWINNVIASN", "chain of UniProt P28861 (whole entry, looked up)": "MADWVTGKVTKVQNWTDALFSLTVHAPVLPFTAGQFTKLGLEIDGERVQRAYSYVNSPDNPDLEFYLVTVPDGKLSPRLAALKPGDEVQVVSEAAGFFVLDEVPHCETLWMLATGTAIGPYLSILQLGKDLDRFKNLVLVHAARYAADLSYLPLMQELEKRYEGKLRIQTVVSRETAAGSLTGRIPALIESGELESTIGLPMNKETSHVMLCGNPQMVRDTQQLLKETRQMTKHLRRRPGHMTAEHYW", "chain of UniProt P24530 (whole entry, looked up)": "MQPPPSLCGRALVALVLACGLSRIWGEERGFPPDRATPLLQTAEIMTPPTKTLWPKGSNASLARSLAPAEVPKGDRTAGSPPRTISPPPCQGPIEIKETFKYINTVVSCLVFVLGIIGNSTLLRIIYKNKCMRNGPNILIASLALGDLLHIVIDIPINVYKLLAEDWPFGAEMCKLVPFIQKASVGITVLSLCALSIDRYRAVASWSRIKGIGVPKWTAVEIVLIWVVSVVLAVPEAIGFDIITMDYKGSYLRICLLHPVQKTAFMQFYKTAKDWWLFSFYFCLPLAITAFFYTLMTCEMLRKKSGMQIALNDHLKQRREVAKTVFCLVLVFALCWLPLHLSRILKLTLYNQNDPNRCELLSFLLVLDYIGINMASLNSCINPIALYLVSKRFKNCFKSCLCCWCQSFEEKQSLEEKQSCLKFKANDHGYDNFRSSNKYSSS"}
{"Molecule": "Dctn1 (Mus musculus, UniProt O08788)", "target or system": "Dync1h1 F580Y (Mus musculus, UniProt Q9JHU4)", "test": "co-IP", "system": "brain extract", "setting": "4 °C", "scale": "baseline: wild type, lower = less binding", "quantity": "p150/DHC ratio", "value": "1.2 fold"}
{"Molecule": "RmS-3, glycosylated (Rhipicephalus microplus)", "target or system": "CELA1 (Sus scrofa, UniProt P00772)", "test": "chromogenic substrate hydrolysis, inhibitor", "setting": "1 µM", "quantity": "protease inhibition", "value": "92.6%"}
{"Molecule": "EDN1 mature, Nle at 7", "target or system": "EDNRB (Homo sapiens, UniProt P24530)", "test": "Ca2+ release", "system": "COS-7", "setting": "co-transfection", "quantity": "EC50", "value": "2 nM"}
{"Molecule": "NSRQTDR", "system": "peptide, human polyclonal IgM RF STR", "setting": "concentration not given, 5 µg/mL mAb II-481 coated, added: RF at 50% max binding concentration", "quantity": "inhibition", "value": "0%"}
{"Molecule": "AR[pT]KQTARKSTG (H3C1 1-12; pT3; pT = C[C@@H](OP(=O)(O)O)[C@H](N)C(=O)O)", "target or system": "BIRC5 1-142 (Homo sapiens, UniProt O15392)", "test": "ITC", "system": "peptide", "setting": "pH 7.8, 25 °C, NaCl 50 mM", "quantity": "Kd", "value": "29600 ± 5400 nM"}
{"Molecule": "B1 (Fmnl3 555-954 K800A)", "target or system": "ACTA1, TMR label (Oryctolagus cuniculus, UniProt P68135)", "test": "AUC", "setting": "KCl 50 mM", "quantity": "fraction bound", "value": "0.88 fraction"}
{"Molecule": "B2 (HNRNPH1 192-280)", "target or system": "FUS 2-214 (Homo sapiens, UniProt P35637)", "test": "trapping in hydrogel, hydrogel binding", "setting": "pH 7.5, 4 °C, NaCl 200 mM", "quantity": "binding", "value": "binds"}
{"Molecule": "B3 (kaiA)", "target or system": "kaiC 1-519 E352D (Synechococcus elongatus, UniProt Q79PF4)", "test": "priming phosphorylation, SDS-PAGE", "setting": "0.2 mg/mL, 30 °C, added: KaiA 0.04 mg/mL", "scale": "higher = faster", "quantity": "rate constant k1", "value": "0.15 h⁻¹"}
{"Molecule": "B4 (Fmnl3 555-954 R570A)", "target or system": "ACTA1, pyrene label (Oryctolagus cuniculus, UniProt P68135)", "test": "inhibition of filament elongation, inhibitor, pyrene-actin assay", "quantity": "IC50", "value": "0.9 nM"}
{"Molecule": "melittin", "test": "isothermal titration calorimetry", "system": "POPC/POPG LUVs 90:10%", "setting": "100 µM, pH 7.0, 60 °C", "quantity": "partitioning enthalpy", "value": "-12.5 kcal/mol"}
{"Molecule": "B5 (Fmnl3 555-954 Q746A)", "target or system": "ACTA1, TMR label (Oryctolagus cuniculus, UniProt P68135)", "test": "AUC", "setting": "KCl 50 mM", "quantity": "fraction bound", "value": "0.95 fraction"}
{"Molecule": "B6 (Nde1)", "target or system": "CENPF 2122-2297 (Homo sapiens, UniProt P49454)", "test": "pull-down", "setting": "Cdk1/CyclinB phosphorylated", "scale": "baseline: dephospho-Nde1, higher = more bound", "quantity": "relative binding", "value": "2.5 fold"}
{"Molecule": "RmS-6, glycosylated (Rhipicephalus microplus)", "target or system": "F11 factor XIa (Homo sapiens)", "test": "chromogenic substrate hydrolysis, inhibitor", "setting": "1 µM", "quantity": "protease inhibition", "value": "62.9%"}
{"Molecule": "Grm5 mGlu5a, Venus fusion", "target or system": "Grid1 (Mus musculus, UniProt Q61627)", "test": "DHPG-induced current", "system": "HEK", "setting": "100 µM, co-transfected", "quantity": "slow inward current", "value": "78 pA"}
{"Molecule": "CTCF fragment (Homo sapiens) (sequence not shown)", "target or system": "T1, STAG2/RAD21 STAG2 80-1060, RAD21 281-420 (Homo sapiens)", "test": "ITC", "setting": "pH 7.7, 25 °C, NaCl 150 mM", "quantity": "ΔH", "value": "-13.2 kcal/mol"}
{"Molecule": "IRF1 (Homo sapiens, UniProt P10914)", "target or system": "SMARCA4 (Homo sapiens, UniProt P51532)", "test": "proximity ligation", "system": "hSAECs", "scale": "baseline: mock-infected, higher = more interaction", "quantity": "PLA signal increase", "value": "2.8 fold"}
{"Molecule": "Importin-β/IBB-mEGFP IBB (Saccharomyces cerevisiae)", "target or system": "NSP1 fragment (Saccharomyces cerevisiae)", "test": "ellipsometry", "setting": "apparent, two-component fit", "quantity": "partition coefficient", "value": 6700}
{"Molecule": "cinC (UniProt Q8VQF4)", "target or system": "fpr (Escherichia coli, UniProt P28861)", "test": "absorbance loss", "setting": "20 µM, pH 7.8, added: NADPH 200 µM", "quantity": "electron transfer rate", "value": "48.1 min⁻¹"}
{"Molecule": "rpoS del228-234 (Escherichia coli)", "target or system": "rpoB/rpoC core RNA polymerase (Escherichia coli)", "test": "pausing efficiency", "setting": "adhE TEC", "quantity": "apparent Kd", "value": "410 nM"}
{"Molecule": "ACE2/pIgR VHH6 Fc fusion ACE2 , Fc fusion (Homo sapiens)", "target or system": "PIGR (Homo sapiens, UniProt P01833)", "test": "BLI", "quantity": "koff", "value": "5.93e-05 s⁻¹"}
{"note": "A few entries again:"}
{"Molecule": "Importin-β/IBB-mEGFP IBB (Saccharomyces cerevisiae)", "target or system": "NSP1 fragment (Saccharomyces cerevisiae)", "test": "ellipsometry", "setting": "apparent, two-component fit", "quantity": "partition coefficient", "value": 6700}
{"Molecule": "cinC (UniProt Q8VQF4)", "target or system": "fpr (Escherichia coli, UniProt P28861)", "test": "absorbance loss", "setting": "20 µM, pH 7.8, added: NADPH 200 µM", "quantity": "electron transfer rate", "value": "48.1 min⁻¹"}
{"Molecule": "rpoS del228-234 (Escherichia coli)", "target or system": "rpoB/rpoC core RNA polymerase (Escherichia coli)", "test": "pausing efficiency", "setting": "adhE TEC", "quantity": "apparent Kd", "value": "410 nM"}
